Assay results pooled from the literature.
Every numbered part comes from another study and shows a few of its results, in no order.

Study 1 — method: RNAcompete; molecule type: RNA; sample: in vitro; tested at: 20 nM; notes: 7-mer, probes averaged, single round; reference: mean of 7-mers; reading: higher = stronger binding
Target: PABPC1L2, full length, GST fusion (mouse, UniProt A0ABA7IW68)
Residues (chain): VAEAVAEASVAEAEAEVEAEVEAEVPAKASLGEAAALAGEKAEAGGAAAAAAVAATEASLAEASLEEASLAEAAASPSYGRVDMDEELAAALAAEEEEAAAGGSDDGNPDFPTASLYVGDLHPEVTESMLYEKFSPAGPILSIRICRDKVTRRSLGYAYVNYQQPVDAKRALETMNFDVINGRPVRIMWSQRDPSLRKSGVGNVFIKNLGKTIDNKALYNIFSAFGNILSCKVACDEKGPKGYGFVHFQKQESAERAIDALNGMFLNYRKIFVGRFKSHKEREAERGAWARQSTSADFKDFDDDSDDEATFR
For `UACCCUA`, the 7-mer Z-score was -0.219.
`UUGCUGG` has a 7-mer Z-score of -0.222.
`GAUAGUU` gave a 7-mer Z-score of -0.324.
`GAGCAGA` has a 7-mer Z-score of 0.111.
For `GCGUUGG`, the 7-mer Z-score was 0.0696.
`GGCGCGA` has a 7-mer Z-score of -0.0301.
With `GUGAGGA` the 7-mer Z-score was -0.0627.
With `UGAUAGA` the 7-mer Z-score was -0.0373.
The 7-mer Z-score of `UGACCAA` is reported as 0.184.
With `UGCGCUG` the 7-mer Z-score was -0.103.

Study 2 — method: competition protein-binding microarray; molecule type: double-stranded DNA, one strand shown; sample: in vitro; tested at: 2 µM; together with: Cbf1 competitor, 0.05 µM; reading: higher = stronger binding; shared flanks, not repeated: … GTCTTGATTCGCTTGACGCTGCTG
Target: Phosphate system positive regulatory protein PHO4, full length, GST-tagged (PHO4, Saccharomyces cerevisiae, UniProt P07270, residues 1-312)
Notes: whole 60-bp probe, lowest competitor level
Residues (chain): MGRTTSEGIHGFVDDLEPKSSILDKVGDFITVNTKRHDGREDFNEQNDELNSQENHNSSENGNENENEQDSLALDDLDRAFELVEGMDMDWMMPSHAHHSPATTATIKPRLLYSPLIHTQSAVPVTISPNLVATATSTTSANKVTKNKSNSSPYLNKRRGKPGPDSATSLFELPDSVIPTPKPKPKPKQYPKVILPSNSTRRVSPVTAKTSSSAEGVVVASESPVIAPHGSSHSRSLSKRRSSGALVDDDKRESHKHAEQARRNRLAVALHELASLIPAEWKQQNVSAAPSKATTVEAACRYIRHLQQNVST
`AGTATGCCCATCAGCCTCGTGACGGATGAGGATCTC` gave a fluorescence intensity of 10200 a.u.
The fluorescence intensity of `CTAACGAAGGTTTGGTCTGTGGGTGACAAGCCAAGT` is reported as 3520 a.u.
`ATACAACAAAGCGACCGCGTGACGGTTAGACAAGAC` has a fluorescence intensity of 9850 a.u.
The fluorescence intensity of `AAAAACATTTCCTGTCACATGTTAGTAAAACAGAAA` is reported as 11200 a.u.
With `AATATTAAAGTTCACAACGTGAAGACCTTCCTTTCT` the fluorescence intensity was 8430 a.u.
With `ATCATCATACATTTGCACGTGGCCGTTACATTTTTC` the fluorescence intensity was 19700 a.u.
`GGTGCCCAGAGTAAAGGCGTGATGGTGCAAAGACTC` gave a fluorescence intensity of 5950 a.u.
With `GTCTTGTCTCATTGTAGAGTGGGTGTCCCCACTTCA` the fluorescence intensity was 5050 a.u.
`AAAGCGGTAATTTTTCACGTGGACTCACATATCTAT` has a fluorescence intensity of 13500 a.u.
The fluorescence intensity of `ACTTTCTTTCTGTTCCACGTGGGTACACCACTTCAA` is reported as 19000 a.u.
`TGGACCTCTGACGGTAACGTGAAGAGCAATTTTTTC` has a fluorescence intensity of 5170 a.u.
With `TTGTTGAGTAATCGGCACGTCACCGCACAACAGCCG` the fluorescence intensity was 6680 a.u.
`CATACCCAACCTTCCCACGTGTTTTAAGATATTTGT` has a fluorescence intensity of 21200 a.u.

Study 3 — method: protein-binding microarray; molecule type: double-stranded DNA, one strand shown; sample: in vitro; tested at: 2200 nM top; notes: 60-bp whole probe; together with: salmon DNA 0.4 mg/ml; reference: random background probes; reading: higher = stronger binding; shared flanks, not repeated: GCCTAGCAC … GTCTTGATTCGCTTGACGCTGCTG
Target: Interferon regulatory factor 7, full length, phosphomimetic (IRF7, Homo sapiens, UniProt Q92985, residues 1-503, S471D/S472D/S475D/S476D/S477D/S483D/S484D/S487D)
Residues (chain): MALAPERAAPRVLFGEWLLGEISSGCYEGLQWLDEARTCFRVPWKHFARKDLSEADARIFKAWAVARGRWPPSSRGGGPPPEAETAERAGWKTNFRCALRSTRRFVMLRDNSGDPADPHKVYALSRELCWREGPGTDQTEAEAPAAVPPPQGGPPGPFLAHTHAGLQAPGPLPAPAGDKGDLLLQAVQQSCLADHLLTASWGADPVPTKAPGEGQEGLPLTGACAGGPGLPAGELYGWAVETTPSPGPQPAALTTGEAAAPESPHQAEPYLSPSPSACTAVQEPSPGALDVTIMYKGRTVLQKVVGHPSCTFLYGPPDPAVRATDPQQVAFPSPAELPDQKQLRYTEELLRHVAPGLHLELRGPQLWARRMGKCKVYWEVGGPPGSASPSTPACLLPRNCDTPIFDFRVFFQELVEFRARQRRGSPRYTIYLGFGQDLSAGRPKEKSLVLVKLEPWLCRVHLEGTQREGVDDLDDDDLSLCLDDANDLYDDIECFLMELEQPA
For `TTAGGTCTCGGTCACGGTTAGTGCTAG`, “fitted relative affinity” read 0.125 z-score.
`GACGATTTCAGACTGAAGACGTGCTAG` — result for “fitted relative affinity”: 0.0217 z-score.
`GAGAATTTCCACTTTGACTTGTGCTAG` — result for “fitted relative affinity”: 1.78 z-score.
`TCAATTCCCTTTCTCAAACTGTGCTAG`: “fitted relative affinity” 2.29 z-score.
Under “fitted relative affinity”, `GTAGATCTCAGTCTCGATTAGTGCTAG` is recorded as 0.516 z-score.
Under “fitted relative affinity”, `TTTCGTATCTTCATTGTCATGTGCTAG` is recorded as 10.9 z-score.
`TTAGAACTGAGACGGGATTAGTGCTAG`: “fitted relative affinity” -0.713 z-score.
For `TTAGGTAACGGGACTGGGTTAGTGCTA`, “fitted relative affinity” read -0.832 z-score.
For `GACGGTATCGACTTTCGGGAGGTGCTA`, “fitted relative affinity” read 1.98 z-score.
Under “fitted relative affinity”, `GACGGTTTCGGACTTGGGACGTGCTAG` is recorded as 3.25 z-score.

Study 4 — method: RNA Bind-n-Seq; molecule type: RNA; sample: in vitro; tested at: 200 nM; notes: whole 134-nt RNA, ends assumed; together with: 150 mM LiCl; reference: input library; reading: higher = stronger binding; each molecule: 7-deaza-guanosine replaces G
Target: Fragile X messenger ribonucleoprotein 1, C-terminal low-complexity region (Fmr1, Mus musculus, UniProt P35922)
Shared flanks, not repeated: GGGAGUUCUACAGUCCGACGAUC … UGGAAUUCUCGGGUGUCAAGG
`CUCAAGUCCUGUGCUACACAUCGUAUGUACCGAAUCGGGAAAGGGUGGGUGGGAAAGUAUUAUGUUACGCCGUUCGGAUCUGCACUUCCA` has a log2 enrichment of -0.391.
For `UCCUGUGCUACACAUCGUAUGUACCGAAUCGGGGUUUUUUUGGGGAAAAAGGGGUGGGGAAAGUAUUAUGUUACGCCGUUCGGAUCUGCA`, the log2 enrichment was -1.05.
With `CAAGUCCUGUGCUACACAUCGUAUGUACCGAAUCGGUUUGGAAAAAGGUUUUUGGAAAGUAUUAUGUUACGCCGUUCGGAUCUGCACUUC` the log2 enrichment was -2.1.
`AAGUCCUGUGCUACACAUCGUAUGUACCGAAUCGGGAAAAAGGGUGGGAAAAAGGGAAAGUAUUAUGUUACGCCGUUCGGAUCUGCACUU` gave a log2 enrichment of -1.13.
`UGGCCCUGGUGGCAUGCGGGGUGGAAGAGGUGGCCUCAUGGAUCGUGGUGGUCCCGGUGGAAUGUUCAGAGGUGGCCGUGGUGGAGACAG` has a log2 enrichment of 0.486.
`UCCUGUGCUACACAUCGUAUGUACCGAAUCGGGGCCCCCCGGCCCCCCGGGCCCCCCGGAAAGUAUUAUGUUACGCCGUUCGGAUCUGCA` has a log2 enrichment of 0.0738.
With `CAAGUCCUGUGCUACACAUCGUAUGUACCGAAUCGGUUUGGUUUGGUUUUUUUGGAAAGUAUUAUGUUACGCCGUUCGGAUCUGCACUUC` the log2 enrichment was -1.71.
The log2 enrichment of `AGUCCUGUGCUACACAUCGUAUGUACCGAAUCGGGAAAGGGUUUUUUUGGGAAAGGGAAAGUAUUAUGUUACGCCGUUCGGAUCUGCACU` is reported as -1.87.

Study 5 — method: universal PBM; molecule type: double-stranded DNA, one strand shown; sample: in vitro; tested at: 600 nM; reading: higher = stronger binding
Target: Sal-like protein 4, full length isoform A (SALL4, Homo sapiens, UniProt Q9UJQ4, residues 1-1053)
Chain of UniProt Q9UJQ4 (whole entry, looked up): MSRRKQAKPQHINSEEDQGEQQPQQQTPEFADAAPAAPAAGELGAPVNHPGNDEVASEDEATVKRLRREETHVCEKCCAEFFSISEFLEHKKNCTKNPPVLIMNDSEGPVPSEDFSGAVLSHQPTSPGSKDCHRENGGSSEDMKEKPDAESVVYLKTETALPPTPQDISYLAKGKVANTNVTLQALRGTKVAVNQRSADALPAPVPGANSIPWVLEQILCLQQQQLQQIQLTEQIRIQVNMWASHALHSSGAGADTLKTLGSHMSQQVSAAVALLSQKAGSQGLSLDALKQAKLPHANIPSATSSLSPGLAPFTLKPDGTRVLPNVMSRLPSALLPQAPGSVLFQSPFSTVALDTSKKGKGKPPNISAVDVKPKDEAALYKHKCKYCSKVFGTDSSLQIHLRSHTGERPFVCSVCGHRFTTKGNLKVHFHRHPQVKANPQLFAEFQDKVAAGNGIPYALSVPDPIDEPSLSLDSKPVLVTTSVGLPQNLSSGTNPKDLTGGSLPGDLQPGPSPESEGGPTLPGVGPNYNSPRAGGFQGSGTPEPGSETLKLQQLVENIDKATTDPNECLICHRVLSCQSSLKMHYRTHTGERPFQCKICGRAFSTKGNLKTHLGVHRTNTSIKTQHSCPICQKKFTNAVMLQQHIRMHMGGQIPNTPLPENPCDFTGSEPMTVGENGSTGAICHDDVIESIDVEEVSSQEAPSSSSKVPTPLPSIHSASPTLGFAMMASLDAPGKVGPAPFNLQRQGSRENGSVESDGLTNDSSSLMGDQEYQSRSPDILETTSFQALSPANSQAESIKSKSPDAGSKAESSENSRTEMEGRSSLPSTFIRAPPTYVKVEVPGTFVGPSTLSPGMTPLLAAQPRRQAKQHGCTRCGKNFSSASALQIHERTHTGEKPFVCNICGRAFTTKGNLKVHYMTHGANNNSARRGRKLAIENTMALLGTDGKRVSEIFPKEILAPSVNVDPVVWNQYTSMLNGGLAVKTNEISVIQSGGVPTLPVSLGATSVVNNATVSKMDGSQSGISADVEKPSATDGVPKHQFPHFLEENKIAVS
Notes: 8-mer, flanks averaged, mean of replicates
The E-score of `TGCCCGAA` is reported as -0.0581.
With `AAACCGTT` the E-score was -0.0817.
The E-score of `GCGTTCCC` is reported as -0.254.
The E-score of `AGGGAGCA` is reported as -0.27.
With `CCATGCAC` the E-score was -0.174.
The E-score of `ATTGTCCC` is reported as -0.0664.
The E-score of `AGATCTGC` is reported as 0.0122.
`TATGGCAA` has an E-score of 0.213.
`TAAGTAGA` gave an E-score of 0.184.
`CGGTCACG` has an E-score of -0.247.
For `CAGCCCAG`, the E-score was -0.376.
`ACCAGTTC` gave an E-score of -0.17.
`AAAAGGGC` has an E-score of -0.134.
The E-score of `ACGGAGTA` is reported as -0.0809.
For `ATTCACGG`, the E-score was 0.0421.
The E-score of `TATCGCCA` is reported as -0.0464.
For `CCTCCACA`, the E-score was -0.0339.
With `CCGCTCCA` the E-score was -0.218.
The E-score of `AAAGTGGA` is reported as 0.0754.

Excerpt of the above (study 5):
`ACCAGTTC` gave an E-score of -0.17.
`AAAAGGGC` has an E-score of -0.134.
The E-score of `ACGGAGTA` is reported as -0.0809.
For `ATTCACGG`, the E-score was 0.0421.
The E-score of `TATCGCCA` is reported as -0.0464.
For `CCTCCACA`, the E-score was -0.0339.
